Published values gathered from unrelated publications.
Each line is one published result; not all experiments were run side by side.
B1: PIN3 167-479 (Arabidopsis thaliana, UniProt Q9S7Z8); chain ETAASIVSFKVESDVVSLDGHDFLETDAEIGDDGKLHVTVRKSNASRRSFCGPNMTPRPSNLTGAEIYSLSTTPRGSNFNHSDFYNMMGFPGGRLSNFGPADMYSVQSSRGPTPRPSNFEENCAMASSPRFGYYPGGGAGSYPAPNPEFSSTTTSTANKSVNKNPKDVNTNQQTTLPTGGKSNSHDAKELHMFVWSSNGSPVSDRAGLNVFGGAPDNDQGGRSDQGAKEIRMLVPDQSHNGETKAVAHPASGDFGGEQQFSFAGKEEEAERPKDAENGLNKLAPNSTAALQSKTGLGGAEASQRKNMPPASVM
B2: ATG8a (Oryza sativa, UniProt Q69RC4); chain MARTSFKLEHPLERRQAESARIREKYSDRIPVIVEKADKTDVPEIDKKKYLVPADLTVGQFVYVVRKRIKLSPEKAIFVFVKNTLPPTASLMSAIYEENKDEDGFLYMTYSGENTFGSA
B3: ROPGAP3 154-332 (Arabidopsis thaliana, UniProt Q8GYY5); chain SMQCSYDDRGNSVPTILLRMQKRLYTEGGLKAEGIFRINPDNGKEEHVRRQLNCGVVPRGIDVHCLAGLIKAWFRELPTGVLDVLTPEQVMRCNTEEDCSRLVILLPPVESAILDWAIGLMADVVEHEQFNKMNARNVAMVFAPNMTQMADPLTALIHAVQVMNFLKTLILMNLKEREN
B4: rplP uL16 (Mycobacterium smegmatis, UniProt A0QSD8); chain MLIPRKVKHRKQHHPEQRGIASGGTSVSFGDYGIQALEHAYITNRQIESARIAINRHIKRGGKVWINIFPDRPLTKKPAETRMGSGKGSPEWWVANVKPGRVLFELSYPDEKTARDALTRAIHKLPIKARIVTREEQF
B5: MSMEG_2064 (Mycolicibacterium smegmatis, UniProt A0QU37); chain MAGSAPLRILVYSDNPRTREQVRLALGKRIHPELPEIEYVDVATAPMAISQMDAGGFDLAILDGEATPAGGMGVAKQVKDEIDDCPPILVLTGRADDAWLAKWSRAEAAVPHPIDPIRLSDAVVSLLRAPAQ
B6: ife-1 (Caenorhabditis elegans, UniProt O45551); chain MTETEQTTAPIYPLKRNWTWWYLNDERNKSWEDRLKKVYTFNTVSEFWALYDAIRPPSGLNALCDYNVFRDDIQPMWEVPENSNGGRWLIVIDKGKTPEMVDAIWLEILMALVGEQFGKDMESICGLVCNVRGKGSKISVWTKDCNDDETNMRIGVVLKEKLMAASKDHSKPLFDVIRYEDHESCQKKTSSVVKAKLSLHSSDAPVAEKSAV
B7: NuoB (Mycolicibacterium smegmatis, UniProt A0QU35); chain MGLEERLPGGILLSTVETVAGYVRKGSLWPATFGLACCAIEMMSTAGPRFDIARFGMERFSATPRQADLMIVAGRVSQKMAPVLRQIYDQMVEPKWVLAMGVCASSGGMFNNYAVVQGVDHVVPVDIYLPGCPPRPEMLLHAILKLHDKIQQMPLGVNREEAIREAEQAALAVPPTIELKGLLR
B8: NYV1 (Saccharomyces cerevisiae, UniProt Q12255); chain MKRFNVSYVEVIKNGETISSCFQPFQKNENYGTITSANEQITPVIFHNLIMDMVLPKVVPIKGNKVTKMSMNLIDGFDCFYSTDDHDPKTVYVCFTLVDMPKILPIRILSGLQEYESNATNELLSSHVGQILDSFHEELVEYRNQTLNSSGNGQSSNGNGQNTISDIGDATEDQIKDVIQIMNDNIDKFLERQERVSLLVDKTSQLNSSSNKFRRKAVNIKEIMWWQKVKNITLLTFTIILFVSAAFMFFYLW
B9: mutL 460-658 Q515A (Neisseria gonorrhoeae, UniProt Q5F8M6); chain SQSELPPLGFAIAQLLGIYILAQAEDSLLLIDMHAAAERVNYEKMKRQRQENGNLASQHLLIPVTFAASHEECAALADHAETLAGFGLELSDMGGNTLAVRAAPVMLGKSDVVSLARDVLGELAQVGSSQTIASHENRILATMSCHGSIRAGRRLTLPEMNALLRDMENTPRSNQCNHGRPTWVKLTLKELDTLFLRGQ
B10: Cbx1 (Mus musculus, UniProt P83917); chain MGKKQNKKKVEEVLEEEEEEYVVEKVLDRRVVKGKVEYLLKWKGFSDEDNTWEPEENLDCPDLIAEFLQSQKTAHETDKSEGGKRKADSDSEDKGEESKPKKKKEESEKPRGFARGLEPERIIGATDSSGELMFLMKWKNSDEADLVPAKEANVKCPQVVISFYEERLTWHSYPSEDDDKKDDKN
B11: PPP2R2A (Homo sapiens, UniProt P63151); chain MAGAGGGNDIQWCFSQVKGAVDDDVAEADIISTVEFNHSGELLATGDKGGRVVIFQQEQENKIQSHSRGEYNVYSTFQSHEPEFDYLKSLEIEEKINKIRWLPQKNAAQFLLSTNDKTIKLWKISERDKRPEGYNLKEEDGRYRDPTTVTTLRVPVFRPMDLMVEASPRRIFANAHTYHINSISINSDYETYLSADDLRINLWHLEITDRSFNIVDIKPANMEELTEVITAAEFHPNSCNTFVYSSSKGTIRLCDMRASALCDRHSKLFEEPEDPSNRSFFSEIISSISDVKFSHSGRYMMTRDYLSVKIWDLNMENRPVETYQVHEYLRSKLCSLYENDCIFDKFECCWNGSDSVVMTGSYNNFFRMFDRNTKRDITLEASRENNKPRTVLKPRKVCASGKRKKDEISVDSLDFNKKILHTAWHPKENIIAVATTNNLYIFQDKVN
B12: hrdB 1-511 (Streptomyces coelicolor, UniProt P18183); chain MSASTSRTLPPEIAESVSVMALIERGKAEGQIAGDDVRRAFEADQIPATQWKNVLRSLNQILEEEGVTLMVSAAEPKRTRKSVAAKSPAKRTATKAVAAKPVTSRKATAPAAPAAPATEPAAVEEEAPAKKAAAKKTTAKKATAKKTTAKKAAAKKTTAKKEDGELLEDEATEEPKAATEEPEGTENAGFVLSDEDEDDAPAQQVAAAGATADPVKDYLKQIGKVPLLNAEQEVELAKRIEAGLFAEDKLANSDKLAPKLKRELEIIAEDGRRAKNHLLEANLRLVVSLAKRYTGRGMLFLDLIQEGNLGLIRAVEKFDYTKGYKFSTYATWWIRQAITRAMADQARTIRIPVHMVEVINKLARVQRQMLQDLGREPTPEELAKELDMTPEKVIEVQKYGREPISLHTPLGEDGDSEFGDLIEDSEAVVPADAVSFTLLQEQLHSVLDTLSEREAGVVSMRFGLTDGQPKTLDEIGKVYGVTRERIRQIESKTMSKLRHPSRSQVLRDYLD
B13: ATG13 567-695 (Saccharomyces cerevisiae, UniProt Q06628); chain GGNSSTSALNSRRNSLDKSSNKQGMSGLPPIFGGESTSYHHDNKIQKYNQLGVEEDDDDENDRLLNQMGNSATKFKSSISPRSIDSISSSFIKSRIPIRQPYHYSQPTTAPFQAQAKFHKPANKLIDNG
B14: atpC 1-133 (Acinetobacter baumannii, UniProt A3M145); sequence looked up; chain MATMQCDVVSVKESIYSGAVTMLIAKGAGGELGILPGHAPLVTLLQPGPIRVLLENGTEEIVYVSGGVLEVQPHVVTVLADTAIRADNLDEAAILEARKNAEQLLANQKSDLDSAAALAALAETAAQLETIRK
B15: CENPW K29A/K30A/R34A/E36A/T60E (Homo sapiens, UniProt Q5EE01); sequence looked up; chain MALSTIVSQRKQIKRKAPRGFLKRVFKRAAPQLALAKSGDLLVHLNCLLFVHRLAEESRENACASKCRVINKEHVLAAAKVILKKSRG
B16: CLTC 1-363 (Bos taurus, UniProt P49951); chain MAQILPIRFQEHLQLQNLGINPANIGFSTLTMESDKFICIREKVGEQAQVVIIDMNDPSNPIRRPISADSAIMNPASKVIALKAGKTLQIFNIEMKSKMKAHTMTDDVTFWKWISLNTVALVTDNAVYHWSMEGESQPVKMFDRHSSLAGCQIINYRTDAKQKWLLLTGISAQQNRVVGAMQLYSVDRKVSQPIEGHAASFAQFKMEGNAEESTLFCFAVRGQAGGKLHIIEVGTPPTGNQPFPKKAVDVFFPPEAQNDFPVAMQISEKHDVVFLITKYGYIHLYDLETGTCIYMNRISGETIFVTAPHEATAGIIGVNRKGQVLSVCVEEENIIPYITNVLQNPDLALRMAVRNNLAGAEEL
UniProt Q12241, sequence (whole entry, looked up): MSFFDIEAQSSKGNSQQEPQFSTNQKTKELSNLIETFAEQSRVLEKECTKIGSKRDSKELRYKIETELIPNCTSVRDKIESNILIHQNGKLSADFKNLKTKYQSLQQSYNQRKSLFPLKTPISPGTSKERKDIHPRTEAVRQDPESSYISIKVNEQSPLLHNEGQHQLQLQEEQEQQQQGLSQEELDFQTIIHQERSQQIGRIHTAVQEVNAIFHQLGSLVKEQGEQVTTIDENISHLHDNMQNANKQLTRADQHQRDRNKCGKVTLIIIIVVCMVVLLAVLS
UniProt Q96BT3, sequence (whole entry, looked up): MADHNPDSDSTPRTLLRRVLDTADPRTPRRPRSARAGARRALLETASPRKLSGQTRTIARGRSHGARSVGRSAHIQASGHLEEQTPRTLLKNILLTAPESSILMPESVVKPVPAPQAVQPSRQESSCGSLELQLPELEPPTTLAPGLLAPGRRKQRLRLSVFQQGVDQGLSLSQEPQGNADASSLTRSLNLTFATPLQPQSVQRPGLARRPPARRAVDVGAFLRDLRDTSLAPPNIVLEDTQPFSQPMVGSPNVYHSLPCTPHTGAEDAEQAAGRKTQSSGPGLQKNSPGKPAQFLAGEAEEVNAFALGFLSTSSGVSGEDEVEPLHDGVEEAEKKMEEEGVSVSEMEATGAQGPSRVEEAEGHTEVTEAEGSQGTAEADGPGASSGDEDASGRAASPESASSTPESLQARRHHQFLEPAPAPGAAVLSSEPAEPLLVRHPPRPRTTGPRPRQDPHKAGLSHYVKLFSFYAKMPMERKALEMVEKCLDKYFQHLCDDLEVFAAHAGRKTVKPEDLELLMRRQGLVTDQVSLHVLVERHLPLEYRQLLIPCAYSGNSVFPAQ
UniProt O09047, sequence (whole entry, looked up): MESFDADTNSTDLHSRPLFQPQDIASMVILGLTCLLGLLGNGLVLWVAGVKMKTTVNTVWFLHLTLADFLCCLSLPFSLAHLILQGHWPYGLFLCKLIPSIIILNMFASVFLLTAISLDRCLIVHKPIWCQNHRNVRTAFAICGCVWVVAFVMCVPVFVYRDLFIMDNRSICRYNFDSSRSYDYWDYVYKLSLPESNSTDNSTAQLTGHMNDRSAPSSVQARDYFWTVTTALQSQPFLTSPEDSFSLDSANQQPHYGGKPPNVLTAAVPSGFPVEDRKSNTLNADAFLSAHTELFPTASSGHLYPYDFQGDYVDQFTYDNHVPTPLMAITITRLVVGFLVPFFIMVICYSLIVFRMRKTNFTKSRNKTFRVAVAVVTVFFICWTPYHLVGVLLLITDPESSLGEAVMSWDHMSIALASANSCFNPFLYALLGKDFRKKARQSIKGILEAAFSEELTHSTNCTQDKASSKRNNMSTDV
UniProt Q61686, sequence (whole entry, looked up): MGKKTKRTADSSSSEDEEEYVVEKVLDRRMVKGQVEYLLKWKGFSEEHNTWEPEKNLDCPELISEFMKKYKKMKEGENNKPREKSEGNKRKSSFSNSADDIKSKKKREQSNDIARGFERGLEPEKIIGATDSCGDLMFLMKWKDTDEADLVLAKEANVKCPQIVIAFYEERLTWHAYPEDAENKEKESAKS
UniProt P01027, sequence (whole entry, looked up): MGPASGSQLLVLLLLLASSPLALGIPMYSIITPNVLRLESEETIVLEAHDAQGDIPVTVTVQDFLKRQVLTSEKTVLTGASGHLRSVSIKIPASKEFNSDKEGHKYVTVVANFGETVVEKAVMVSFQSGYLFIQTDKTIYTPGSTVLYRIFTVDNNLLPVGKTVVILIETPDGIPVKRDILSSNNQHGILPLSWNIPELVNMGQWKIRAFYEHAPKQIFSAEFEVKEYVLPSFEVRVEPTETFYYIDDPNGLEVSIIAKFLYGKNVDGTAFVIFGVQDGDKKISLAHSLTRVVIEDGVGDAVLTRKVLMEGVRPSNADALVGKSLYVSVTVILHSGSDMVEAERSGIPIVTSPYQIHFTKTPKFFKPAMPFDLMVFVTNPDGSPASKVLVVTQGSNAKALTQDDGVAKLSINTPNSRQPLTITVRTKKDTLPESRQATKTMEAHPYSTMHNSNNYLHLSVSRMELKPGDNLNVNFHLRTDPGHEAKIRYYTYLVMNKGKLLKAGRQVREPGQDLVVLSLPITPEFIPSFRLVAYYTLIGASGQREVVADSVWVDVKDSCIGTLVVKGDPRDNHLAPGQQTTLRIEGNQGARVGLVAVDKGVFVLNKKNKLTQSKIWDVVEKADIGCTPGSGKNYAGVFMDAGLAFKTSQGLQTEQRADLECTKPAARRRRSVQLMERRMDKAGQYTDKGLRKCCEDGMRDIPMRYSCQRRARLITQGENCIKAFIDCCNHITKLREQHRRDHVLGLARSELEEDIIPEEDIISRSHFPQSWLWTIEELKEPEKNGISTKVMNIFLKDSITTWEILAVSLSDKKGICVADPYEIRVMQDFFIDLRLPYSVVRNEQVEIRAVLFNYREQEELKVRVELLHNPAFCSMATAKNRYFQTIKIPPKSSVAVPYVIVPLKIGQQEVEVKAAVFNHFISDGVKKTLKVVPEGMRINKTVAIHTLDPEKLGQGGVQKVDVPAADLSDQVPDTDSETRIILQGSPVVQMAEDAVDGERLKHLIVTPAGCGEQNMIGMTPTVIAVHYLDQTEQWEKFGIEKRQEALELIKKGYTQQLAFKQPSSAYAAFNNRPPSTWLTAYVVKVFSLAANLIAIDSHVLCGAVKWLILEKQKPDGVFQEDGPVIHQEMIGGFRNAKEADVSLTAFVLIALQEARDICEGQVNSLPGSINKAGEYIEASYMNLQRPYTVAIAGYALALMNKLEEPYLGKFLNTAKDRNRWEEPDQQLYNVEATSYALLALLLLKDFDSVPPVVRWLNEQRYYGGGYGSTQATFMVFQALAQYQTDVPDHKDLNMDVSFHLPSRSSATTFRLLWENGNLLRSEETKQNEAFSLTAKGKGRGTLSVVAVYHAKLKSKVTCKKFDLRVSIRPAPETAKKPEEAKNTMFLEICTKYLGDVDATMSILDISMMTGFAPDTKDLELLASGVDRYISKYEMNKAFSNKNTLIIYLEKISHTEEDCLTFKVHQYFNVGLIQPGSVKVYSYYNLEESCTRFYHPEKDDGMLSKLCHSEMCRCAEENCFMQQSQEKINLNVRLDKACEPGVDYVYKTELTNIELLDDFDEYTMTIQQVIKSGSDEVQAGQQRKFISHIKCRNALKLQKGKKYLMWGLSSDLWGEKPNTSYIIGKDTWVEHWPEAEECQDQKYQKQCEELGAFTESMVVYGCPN
UniProt P25941, sequence (whole entry, looked up): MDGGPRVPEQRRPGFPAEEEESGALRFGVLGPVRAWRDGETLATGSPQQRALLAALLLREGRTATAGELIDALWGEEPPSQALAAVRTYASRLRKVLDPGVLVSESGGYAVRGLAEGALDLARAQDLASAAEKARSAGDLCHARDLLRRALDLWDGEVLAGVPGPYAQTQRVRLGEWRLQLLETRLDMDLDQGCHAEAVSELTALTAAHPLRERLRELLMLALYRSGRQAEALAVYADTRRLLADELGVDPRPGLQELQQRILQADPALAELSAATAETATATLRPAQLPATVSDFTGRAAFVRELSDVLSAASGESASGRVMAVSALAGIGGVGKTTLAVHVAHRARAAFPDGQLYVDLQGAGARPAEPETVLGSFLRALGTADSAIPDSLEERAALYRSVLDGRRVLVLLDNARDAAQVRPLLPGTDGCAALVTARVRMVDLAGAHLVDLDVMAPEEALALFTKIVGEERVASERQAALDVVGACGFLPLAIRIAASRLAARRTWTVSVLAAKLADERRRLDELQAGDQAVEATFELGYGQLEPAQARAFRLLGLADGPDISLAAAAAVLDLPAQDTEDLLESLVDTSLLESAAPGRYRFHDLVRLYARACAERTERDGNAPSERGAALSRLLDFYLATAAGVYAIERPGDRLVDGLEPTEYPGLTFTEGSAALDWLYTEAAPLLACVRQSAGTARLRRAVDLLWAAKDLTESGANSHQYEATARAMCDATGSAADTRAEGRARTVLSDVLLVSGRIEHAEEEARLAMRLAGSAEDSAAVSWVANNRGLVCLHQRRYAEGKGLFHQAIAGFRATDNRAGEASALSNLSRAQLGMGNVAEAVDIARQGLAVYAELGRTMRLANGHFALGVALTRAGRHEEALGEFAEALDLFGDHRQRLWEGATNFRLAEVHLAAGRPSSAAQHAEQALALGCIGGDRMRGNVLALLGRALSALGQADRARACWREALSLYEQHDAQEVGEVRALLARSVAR
UniProt A0QU33, sequence (whole entry, looked up): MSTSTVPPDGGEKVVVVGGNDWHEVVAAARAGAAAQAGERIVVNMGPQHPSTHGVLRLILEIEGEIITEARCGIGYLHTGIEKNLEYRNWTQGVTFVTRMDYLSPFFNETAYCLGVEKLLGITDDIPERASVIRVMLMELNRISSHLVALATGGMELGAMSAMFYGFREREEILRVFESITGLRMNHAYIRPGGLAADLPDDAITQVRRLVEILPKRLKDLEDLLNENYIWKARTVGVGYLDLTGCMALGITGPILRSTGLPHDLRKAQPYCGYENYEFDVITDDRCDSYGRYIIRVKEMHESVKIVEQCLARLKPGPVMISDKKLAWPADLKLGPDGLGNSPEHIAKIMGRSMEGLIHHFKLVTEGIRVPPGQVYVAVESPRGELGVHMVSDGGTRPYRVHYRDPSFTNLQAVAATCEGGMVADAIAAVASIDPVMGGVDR

Substance | target or system | assay | system | conditions | how to read | quantity | result
B1 (PIN3 167-479) | ROPGAP3 (Arabidopsis thaliana, UniProt Q8GYY5) | pull-down | – | 4 °C | – | binding | binds
B2 (ATG8a) | MON1 GST fusion (Oryza sativa, UniProt Q5JL08) | pull-down | – | – | – | binding | binds
insulin human | – | refers to: SOD2 mRNA | uninfected mouse, brain | i.p., dose not given | reference: PBS | fold change | 1.07
B3 (ROPGAP3 154-332) | PIN2 167-485 (Arabidopsis thaliana, UniProt Q9LU77) | pull-down | – | in vitro | – | binding | binds
B4 (rplP uL16) | hflX (Mycobacterium smegmatis, UniProt A0QVY1) | cryo-EM | – | – | – | binding | binds
B5 (MSMEG_2064) | NuoB (Mycolicibacterium smegmatis, UniProt A0QU35) | cryo-EM | – | – | – | binding | binds
B6 (ife-1) | pgl-1 (Caenorhabditis elegans, UniProt Q9TZQ3) | pull-down | – | – | – | binding | binds
ptsH fragment T16A (Vibrio cholerae) (sequence not shown) | fruR fragment (Vibrio cholerae) | native gel | – | – | – | binding | binds
B7 (NuoB) | nuoD (Mycolicibacterium smegmatis, UniProt A0QU33) | cryo-EM | – | – | – | binding | binds
KTSHDD (S residues 1348-1353 (HCoV-OC43)) | SEC27 1-301 (Saccharomyces cerevisiae, UniProt P41811) | crystal structure | peptide | – | – | binding | binds
B8 (NYV1) | VAM3 (Saccharomyces cerevisiae, UniProt Q12241) | co-IP | – | – | – | binding | binds
B9 (mutL 460-658 Q515A) | dnaN beta clamp 1-367 (Neisseria gonorrhoeae, UniProt A0ACH0F8P7) | SEC | – | – | – | binding | binds
B10 (Cbx1) | Cbx5 (Mus musculus, UniProt Q61686) | fluorescence polarization | – | – | – | binding | binds
C3a (Mus musculus, UniProt P01027) | C3ar1 (Mus musculus, UniProt O09047) | cryo-EM | – | – | – | binding | binds
B11 (PPP2R2A) | ARPP19 L53A (Homo sapiens, UniProt P56211) | co-IP | HeLa | – | reference: wild-type ARPP19, higher = more binding | binding | < 25 % vs wt
B12 (hrdB 1-511) | afsR (Streptomyces coelicolor, UniProt P25941) | cryo-EM | – | – | – | binding | binds
EKKKLCLCAANKNELLCRGMNPNVP (PF3D7_1254800 peptide 216-240 (Plasmodium falciparum, UniProt Q8I4N9); sequence looked up) | LILRB1 24-461 (Homo sapiens, UniProt Q8NHL6) | SPR | peptide | – | – | binding | binds
aspterric acid | – | hypocotyl length | Arabidopsis thaliana Col-0 seeds | 6.25 µg/mL, 7 days, dark | – | inhibition | 69.5%
MSI3 (Arabidopsis thaliana, UniProt O22469) | HAG2 (Arabidopsis thaliana, UniProt Q9FJT8) | pull-down | – | – | – | binding | binds
B13 (ATG13 567-695) | VAC8 1-578 L31R (Saccharomyces cerevisiae, UniProt P39968) | pull-down | – | – | – | binding | binds
NNDNPLFKSA (ITGB2 residues 748-757 (Homo sapiens)) | TLN1 head domain 1-430 D397R/del139-168, fused to integrin β2 or β3 (UniProt P26039) | crystal structure | peptide | – | – | binding | binds
B14 (atpC 1-133) | atpG 1-289 (Acinetobacter baumannii, UniProt A3M143) | cryo-EM | – | – | – | binding | binds
HAG2 (Arabidopsis thaliana, UniProt Q9FJT8) | Histone H3.1 (Homo sapiens, UniProt P68431) | pull-down | – | – | – | binding | binds
B15 (CENPW K29A/K30A/R34A/E36A/T60E) | CENPT (Homo sapiens, UniProt Q96BT3) | pull-down | – | – | – | binding | binds
B16 (CLTC 1-363) | EPS15 481-896 (Homo sapiens, UniProt P42566) | NMR titration | – | – | – | binding | binds
LQLQKGSDTEAQCE (INTS3 584-597; pS590/pT592) | NBN 1-334 T158A (Homo sapiens, UniProt O60934) | ITC | peptide | – | – | binding | binds

Repeated from above:
Substance | target or system | assay | system | conditions | how to read | quantity | result
NNDNPLFKSA (ITGB2 residues 748-757 (Homo sapiens)) | TLN1 head domain 1-430 D397R/del139-168, fused to integrin β2 or β3 (UniProt P26039) | crystal structure | peptide | – | – | binding | binds
insulin human | – | refers to: SOD2 mRNA | uninfected mouse, brain | i.p., dose not given | reference: PBS | fold change | 1.07
B8 (NYV1) | VAM3 (Saccharomyces cerevisiae, UniProt Q12241) | co-IP | – | – | – | binding | binds
LQLQKGSDTEAQCE (INTS3 584-597; pS590/pT592) | NBN 1-334 T158A (Homo sapiens, UniProt O60934) | ITC | peptide | – | – | binding | binds
